{"data": "Literature values, collected from citations in different studies", "note": "Each numbered part shows a few of the values that one paper quotes. Numbers after ± are the reported error."}
{"data": "Study 1", "organism": "MERS-CoV", "effect on": "viral replication", "technique": "ELISA", "cells": "Vero E6"}
{"SMILES": "CCN(CC)CCOc1ccc(C(O)(Cc2ccc(Cl)cc2)c2ccc(C)cc2)cc1 (centres unmarked)", "EC50 [µM]": 5.28}
{"SMILES": "CN(C)CCOc1ccc(/C(=C(/CCCl)c2ccccc2)c2ccccc2)cc1", "EC50 [µM]": 12.9}
{"SMILES": "CCN(CC)CCCC(C)Nc1ccnc2cc(Cl)ccc12 (centres unmarked)", "EC50 [µM]": 6.28}
{"SMILES": "CCSc1ccc2c(c1)N(CCCN1CCN(C)CC1)c1ccccc1S2", "EC50 [µM]": 7.87}
{"data": "Mixed results"}
{"Substance": "(−)-epigallocatechin-3-O-gallate", "tested on": "Ebola virus VP35", "test": "dsRNA binding, inhibitor", "measurement": "IC50", "value": "43.5 µM"}
{"Substance": "M2 transmembrane peptide (Influenza A virus)", "test": "solid-state NMR, refers to: His37", "test system": "virus-mimetic membrane with cholesterol", "setting": "membrane-bound tetramer, macroscopic, fourth protonation", "measurement": "pKa", "value": 4.2}
{"Substance": "CC(C)(C)[C@H](NC(=O)C(F)(F)F)C(=O)N1C[C@H]2[C@@H]([C@H]1C(=O)N[C@H](C#N)C[C@@H]1CCNC1=O)C2(C)C", "tested on": "Huh-7", "test": "cytotoxicity", "measurement": "CC50", "value": "> 100 µM"}
{"Substance": "C[C@@H]1CCO[C@H]2Cn3cc(C(=O)NCc4ccc(F)cc4F)c(=O)c(O)c3C(=O)N12", "tested on": "HIV-1", "test": "viral replication, single-round vector infection", "test system": "IN N155H", "measurement": "EC50", "value": "0.0036 ± 0.0013 µM"}
{"note": "Some of these lines once more (mixed results):"}
{"Substance": "C[C@@H]1CCO[C@H]2Cn3cc(C(=O)NCc4ccc(F)cc4F)c(=O)c(O)c3C(=O)N12", "tested on": "HIV-1", "test": "viral replication, single-round vector infection", "test system": "IN N155H", "measurement": "EC50", "value": "0.0036 ± 0.0013 µM"}
